Measured values of several laboratories.
Compare with care: the assays were run in different laboratories.
Cell line: MIA PaCa-2

CCCCCC[n+]1ccccc1/C=C/c1ccc(N(C)C)cc1
GI50 (cell growth or viability, ATP luminescence): 71 nM

O=C(Nc1ccc(Br)cc1)Nc1ccc2nc(-c3ccco3)c(-c3ccco3)nc2c1
phospho-IKKβ level (Western blot, item: p-IKKβ; concentration not given): decreased

CS(=O)(=O)c1sc(NC(=O)Nc2ccc(Cl)cc2)c2c1C=CCC2
apoptotic cells (annexin V/PI flow cytometry; 80 µM, 72 h): 90.5%

COc1cc([C@@H]2c3cc4c(cc3[C@@H](OCc3cc(-c5ccc(C#N)cc5)no3)[C@H]3COC(=O)C23)OCO4)cc(OC)c1OC (some centres unmarked)
GI50 (cell growth or viability, SRB; 48 h): 4020 nM

CN(C)c1ccc(/C=C/c2cc[n+](Cc3ccc(F)cc3)cc2)cc1
GI50 (cell growth or viability, ATP luminescence): 1900 nM

COc1ccc(-c2cc(COC3c4cc5c(cc4C(c4cc(OC)c(OC)c(OC)c4)C4C(=O)OCC34)OCO5)on2)cc1 (centres unmarked)
GI50 (cell growth or viability, SRB; 48 h): 170 nM

COC[C@@H](C)N[C@H]1CC[C@H](Nc2cc(-c3cccc(NCC4(C#N)CCOCC4)n3)c(Cl)cn2)CC1
protein level (immunoblot, item: MYC; concentration not given, 6 h): decreased

O=C(CSc1nc2ccccc2s1)Nc1nonc1[N+](=O)[O-]
GI50 (cell growth or viability, ATP luminescence): > 40000 nM

Some of these lines once more:
COc1cc([C@@H]2c3cc4c(cc3[C@@H](OCc3cc(-c5ccc(C#N)cc5)no3)[C@H]3COC(=O)C23)OCO4)cc(OC)c1OC (some centres unmarked)
GI50 (cell growth or viability, SRB; 48 h): 4020 nM
